Assay results gathered from unrelated publications.
Parts stem from different laboratories: compare values within a part only.

Study 1 — technique: RNA Bind-n-Seq; molecule type: RNA; matrix: in vitro; tested at: 200 nM; notes: whole 134-nt RNA, ends assumed; added: 150 mM KCl; reference: input library; direction: higher = stronger binding; quantity: log2 enrichment
Target: Ras GTPase-activating protein-binding protein 1, full length (G3BP1, Homo sapiens, UniProt Q13283)
Sequence of UniProt Q13283 (whole entry, looked up): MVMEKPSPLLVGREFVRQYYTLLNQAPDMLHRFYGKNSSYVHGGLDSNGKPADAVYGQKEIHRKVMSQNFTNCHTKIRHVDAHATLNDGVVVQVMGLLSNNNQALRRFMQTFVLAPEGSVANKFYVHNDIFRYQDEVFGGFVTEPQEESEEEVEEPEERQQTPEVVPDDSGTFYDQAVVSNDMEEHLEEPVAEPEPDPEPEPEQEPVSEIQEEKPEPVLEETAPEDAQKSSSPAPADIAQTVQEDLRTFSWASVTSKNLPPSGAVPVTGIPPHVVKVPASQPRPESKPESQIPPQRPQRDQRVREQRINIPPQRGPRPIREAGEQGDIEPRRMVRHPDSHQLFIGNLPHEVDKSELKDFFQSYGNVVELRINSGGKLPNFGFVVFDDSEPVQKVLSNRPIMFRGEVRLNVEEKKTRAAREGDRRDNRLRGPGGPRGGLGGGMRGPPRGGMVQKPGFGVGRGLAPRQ
GGGAGUUCUACAGUCCGACGAUCAGUCCUGUGCUACACAUCGUAUGUACCGAAUCGGGAAAAAGGGUUUUUGGGUUUGGGAAAGUAUUAUGUUACGCCGUUCGGAUCUGCACUUGGAAUUCUCGGGUGUCAAGG: -0.412
GGGAGUUCUACAGUCCGACGAUCUGUGACAGGAGAGCGCUUGAAGAGCAAUGUGACGAGGACCAUCAGACACCGAGGGAUGGAGAGACAUCCCACAGGGCCCAGAUUCAGCAGUGGAAUUCUCGGGUGUCAAGG: 0.218
GGGAGUUCUACAGUCCGACGAUCGCAGGAAGUAAAAACAAAUGGAAAUGCUUCAAAUAGUGGCAGGGGUGGGGGUUGCUAAGGAAAGGGUGGGAUGGGAGUGGGUAAAGAGUUUGGAAUUCUCGGGUGUCAAGG: 1.18
GGGAGUUCUACAGUCCGACGAUCACCAUGCAGGUGGGCUUCUUUGGGAAGUGGGGCAAGGGGGGGAUAGGGAGGGGGGUAACACUUUGGGAACAGGUGGUCCCAGGUCGUUUCUGGAAUUCUCGGGUGUCAAGG: 1.33

Study 2 — technique: RNA Bind-n-Seq; molecule type: RNA; matrix: in vitro; tested at: 365 nM; reference: no-protein control; direction: higher = stronger binding; quantity: RBNS enrichment (R)
Target: RNA binding protein fox-1 homolog 2, RRM domain, GST-SBP tag (RBFOX2, Homo sapiens, UniProt O43251-10, residues 100-194)
Notes: natural RNA segment, single round, ends assumed
All sequences stand within: GGGAGUUCUACAGUCCGACGAUC … UGGAAUUCUCGGGUGCCAA
GGACCUAUGCAAUUACAUGGGCUCCAUAUCAAAUGGCAUGGUGUCUCUACUGCUGAUUCUCACCUUGCUGGAAUUAUGCGUAACCAUCUCUACCAUAGCCAUGUGGUGCA: 0.362
AUAAACCUACUGUACUCAGUGCUUCUCCAAGAAUACUACAACGGAUGGUUGUACAGUUUGAUUGGAGGCAUGGGGUGUAUGUGAAGUUGGAAGCCUUUGAUAGUUACUGC: 0.516
AUGAAUGAAGAGUAAAAUAAUUACAGGAAAAGAAUGCAUGAUUUUUCAUUGUCACACCAAAUAACCAGUUGGACAAUAUUGCAUUUUCAAAAUGGAGAGUUAUUUAAAGU: 17
CCUCCCUUUUCAAUAAGAUUAUUAGUCGUGCAUGUCUGUGAGCUGCCUUUCAUCACCAUUUUUCCUGAGUAGGGCUUAGUUUUAUUCUGGAAAGACAUCUCCAAGGUGAG: 3.14
UGGUUCUGGUUUAACUAAUAUUUGUCUGUGUGCUACUAACAGAUUAUAAUAAAUUGUCAUCAGUGAACUGUGUUUGAUGCCUUCUUCUAUCUGGAAGAGAUAGACAGACA: 0.588
UGUGAUGUCUAACUCUGCAUAGCCUUUUCUCUUCAUAUCUGCGGCCUAUCUUUUCCCCUUACAUAUGUCUUUGUCCUUCUUUCCCAAAGAUGUCAAAUACAAUGCAGCAU: 0.592

Study 3 — technique: protein binding microarray; molecule type: double-stranded DNA, one strand shown; matrix: in vitro; tested at: not given; reference: not given; direction: higher = stronger binding; quantity: E-score
Target: Histone acetyltransferase KAT6A, winged helix 2, GST fusion (KAT6A, Homo sapiens, UniProt Q92794, residues 85-181)
Notes: 8-mer, flanks averaged, mean of 2 arrays, mostly near background
Construct (chain): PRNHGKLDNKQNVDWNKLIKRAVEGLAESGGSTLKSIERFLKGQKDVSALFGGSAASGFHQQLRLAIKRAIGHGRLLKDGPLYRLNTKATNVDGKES
CATTAAAA: 0.267
TCTGTTAA: -0.0831
GAATCACC: -0.0699
ACGACGAC: -0.166
ACTTGGTG: -0.163
GGATCGCA: -0.151

Mixed results
PhoQ, residues 284 288 289 292 302 303 ASTSDA  fold induction (PhoP, residues 12 14 15 18 19 TPWLV (Escherichia coli, UniProt P23836); Sort-seq, refers to: YFP reporter; E. coli; PhoQ-PhoP variant library, added: 10 µM Mg2+; reference: high Mg2+ state, higher = stronger signaling): 8.78

A few entries again (study 1):
GGGAGUUCUACAGUCCGACGAUCAGUCCUGUGCUACACAUCGUAUGUACCGAAUCGGGAAAAAGGGUUUUUGGGUUUGGGAAAGUAUUAUGUUACGCCGUUCGGAUCUGCACUUGGAAUUCUCGGGUGUCAAGG: -0.412
GGGAGUUCUACAGUCCGACGAUCUGUGACAGGAGAGCGCUUGAAGAGCAAUGUGACGAGGACCAUCAGACACCGAGGGAUGGAGAGACAUCCCACAGGGCCCAGAUUCAGCAGUGGAAUUCUCGGGUGUCAAGG: 0.218
